Published values pooled from the literature.
Lines come from different studies, so protocols differ. ± marks the error that the study gave.

| SMILES | assay | system | conditions | tissue uptake |
| --- | --- | --- | --- | --- |
| COc1ccc(Nc2nc(Nc3ccc(OCCOCC[18F])cc3)ncc2Br)cc1 | – | ICR mice, S180 tumour, liver | intravenous, 30 min, with: PF-562271 33 mg/kg oral 1 h before | 2.89 ± 0.52 %ID/g |
| COc1ccc2c(c1)C(C)(C)C(/C=C/C1=C(Oc3ccc(C(=O)NCCCCOc4cc(CN(Cc5ccccn5)Cc5ccccn5)cc(CN(Cc5ccccn5)Cc5ccccn5)c4)cc3)C(=C/C=C3/N(CCCCS(=O)(=O)[O-])c4ccc(OC)cc4C3(C)C)CCC1)=[N+]2CCCCS(=O)(=O)[O-].O=[N+]([O-])[O-].O=[N+]([O-])[O-].[99Tc+].[C-]#[O+].[C-]#[O+].[C-]#[O+].[Zn+2] | – | BALB/c mice, S. aureus myositis, liver | 12 h post-injection | 21.1 %ID/g |
| CCCC[C@H](NC(=O)CNC(=O)CNC(=O)[C@H](CCCCNC(=O)[C@H](CCN)NC(=O)C(C)c1ccc(CC(C)C)cc1)NC(=O)CN1CCN(CC(=O)O)CCN(CC(=O)O)CCN(CC(=O)O)CC1)C(=O)N[C@H]1CC(=O)NCCCC[C@@H](C(N)=O)NC(=O)[C@H](Cc2c[nH]c3ccccc23)NC(=O)[C@H](CCCNC(=N)N)NC(=O)[C@@H](Cc2ccccc2)NC(=O)[C@H](Cc2c[nH]cn2)NC1=O (some centres unmarked) [lutetium-177 labelled] | – | C57 mice, tumour-bearing, stomach | 2 h | 0.84 ± 0.27 %ID/g |
| O=C([O-])CN1CCN(CC(=O)[O-])CCN(CC(=O)NC[C@H]2CC[C@H](C(=O)N[C@H](Cc3cnc4ccccc4c3)C(=O)NCCCC[C@H](NC(=O)N[C@@H](CCC(=O)O)C(=O)O)C(=O)O)CC2)CCN(CC(=O)[O-])CC1.[64Cu+2] | ex vivo gamma counting | 22Rv1 tumour-bearing mice, intestine | intravenous, 0.74 MBq, 2 h post-injection | 22.1 %ID/g |
| N#C[C@@H]1CCCN1C(=O)CNC(=O)c1ccnc2ccc(OCCCN3CCN(C(=O)CCc4ccc(O)c(CN5CCN6CC(=O)[O][Al-]([18F])([O]C(=O)C5)[O]c5ccc(CCC(=O)N7CCN(CCCOc8ccc9nccc(C(=O)NCC(=O)N%10CCC[C@H]%10C#N)c9c8)CC7)cc5C6)c4)CC3)cc12 (some centres unmarked) | – | BALB/c nude mice, U-87 MG xenograft, spleen | 1 h, blocking, with: DOTA-FAPI-04 40 nmol/mouse co-injected | 1.29 ± 0.15 %ID/g |
| Cc1cc(C)n(CCN(CCN)CCCCCCNC(=O)[C@@H](N)Cc2c[nH]c3ccccc23)n1.[99Tc+].[C-]#[O+].[C-]#[O+].[C-]#[O+] | – | BALB/c nude mice, A549 xenograft, bone | intravenous, 4 h | 0.22 ± 0.02 %IA/g |
| O=C(NCC1OC2CCC=CCCC2O1)c1ccc([18F])nc1 (centres unmarked) | – | female BALB/c nude mice, LS174T tumour, tumor | intravenous, 60 min, with: CC49-tetrazine 24 h before | 1.4 ± 0.3 %ID/g |
| CCCC[C@H](NC(=O)COCCOCCNC(=O)CN1CCN(CC(=O)O)CCN(CC(=O)O)CC1)C(=O)N[C@H]1CC(=O)NCCCC[C@@H](C(N)=O)NC(=O)[C@H](Cc2c[nH]c3ccccc23)NC(=O)[C@H](CCCNC(=N)N)NC(=O)[C@@H](Cc2ccccc2)NC(=O)[C@H](Cc2c[nH]cn2)NC1=O [fluorine-18 labelled] | – | C57 mice, B16/F10 melanoma, tumor | intravenous, 1 h, with: NDP-MSH 10 µg | 0.94 ± 0.16 %ID/g |
| O=C(NCC1OC2CCC=CCCC2O1)c1ccc(COCCOCCOCC[18F])cc1 (centres unmarked) | – | healthy female BALB/c nude mice, blood | intravenous, 7.4 MBq per mouse, 120 min | 2.7 ± 0.2 %ID/g |
| CCCC[C@H](NC(=O)CCCCCCCNC(=O)CN1CCN(CC(=O)O)CCN(CC(=O)O)CC1)C(=O)N[C@H]1CC(=O)NCCCC[C@@H](C(N)=O)NC(=O)[C@H](Cc2c[nH]c3ccccc23)NC(=O)[C@H](CCCNC(=N)N)NC(=O)[C@@H](Cc2ccccc2)NC(=O)[C@H](Cc2c[nH]cn2)NC1=O [fluorine-18 labelled] | – | C57 mice B16-F10 melanoma, pancreas | intravenous, 0.37 MBq, 1 h | 0.06 ± 0.11 %ID/g |
| CC(C)C[C@H](NC(=O)[C@@H](CCCCNC(=O)[C@@H](Cc1ccccc1)NC(=O)CCCCCCCNC(=O)CN1CCN(CC(=O)O)CCN(CC(=O)O)CCN(CC(=O)O)CC1)NC(=O)[C@H](Cc1ccc(O)cc1)NC(=O)[C@H](CO)NC(=O)[C@H](Cc1c[nH]c2ccccc12)NC(=O)[C@H](Cc1c[nH]cn1)NC(=O)[C@@H]1CCC(=O)N1)C(=O)N[C@@H](CCCNC(=N)N)C(=O)N1CCC[C@H]1C(=O)NCC(N)=O [indium-111 labelled] | biodistribution | male athymic nude mice, DU-145 prostate cancer xenograft, spleen | intravenous, 0.037 MBq, 2 h post-injection | 0.33 ± 0.24 %ID/g |
| Cc1cc(C)n(CCN(CCN)CCCCCCNC(=O)[C@@H](N)Cc2c[nH]cn2)n1.[99Tc+].[C-]#[O+].[C-]#[O+].[C-]#[O+] | – | BALB/c nude mice, A549 xenograft, tumor | intravenous, 4 h | 0.91 ± 0.09 %IA/g |
| CCCC[C@H](NC(=O)CNC(=O)CNC(=O)[C@H](CCCCNC(=O)[C@H](CC(=O)O)NC(=O)C(C)c1ccc(CC(C)C)cc1)NC(=O)CN1CCN(CC(=O)O)CCN(CC(=O)O)CCN(CC(=O)O)CC1)C(=O)N[C@H]1CC(=O)NCCCC[C@@H](C(N)=O)NC(=O)[C@H](Cc2c[nH]c3ccccc23)NC(=O)[C@H](CCCNC(=N)N)NC(=O)[C@@H](Cc2ccccc2)NC(=O)[C@H](Cc2c[nH]cn2)NC1=O (some centres unmarked) [lutetium-177 labelled] | – | C57 mice, tumour-bearing, pancreas | intravenous, 0.037 MBq, 24 h | 0.24 ± 0.05 %ID/g |
| COc1ccc(Nc2nc(Nc3ccc(OCCOCCOCC[18F])cc3)ncc2Br)cc1 | – | ICR mice, S180 tumour-bearing, liver | intravenous, 370 kBq, 15 min | 4.65 ± 0.28 %ID/g |

For quick reference, copied from above:
| SMILES | assay | system | conditions | tissue uptake |
| --- | --- | --- | --- | --- |
| COc1ccc(Nc2nc(Nc3ccc(OCCOCC[18F])cc3)ncc2Br)cc1 | – | ICR mice, S180 tumour, liver | intravenous, 30 min, with: PF-562271 33 mg/kg oral 1 h before | 2.89 ± 0.52 %ID/g |
| Cc1cc(C)n(CCN(CCN)CCCCCCNC(=O)[C@@H](N)Cc2c[nH]cn2)n1.[99Tc+].[C-]#[O+].[C-]#[O+].[C-]#[O+] | – | BALB/c nude mice, A549 xenograft, tumor | intravenous, 4 h | 0.91 ± 0.09 %IA/g |
